Results of several laboratories.
Each line is one published result; not all experiments were run side by side. ± marks the error that the study gave.

COc1ccc(F)cc1C(=O)NCc1ccc(-c2nn([C@@H](C)C(F)(F)F)c(N)c2C(N)=O)cc1 gave an AUCtau of 116 µg·h/mL (human, plasma; oral, 200 mg once daily, together with: intravenous midazolam).
COc1ncccc1-c1cnn2ccc(N3CCN(C(=O)OC(C)C)CC3)nc12: “brain drug level” “not detected” (rat, thermal hyperalgesia model, brain; 0.1 mg/kg, 180 min post-dose).
With CN1CCN(S(=O)(=O)c2cc([N+](=O)[O-])ccc2N(CCOS(C)(=O)=O)CCOS(C)(=O)=O)CC1 the glucose was 4.4 mmol/L (naive NOD/SCID mice, pooled blood; intraperitoneal, 18.8 mg/kg, week 4).
For Cc1c(COC(=O)[C@@H]2[C@H](/C=C(\Cl)C(F)(F)F)C2(C)C)cccc1-c1ccccc1 (racemic), “enzyme contribution to clearance” read 1.78% (refers to: CYP3A5; human, age 5 years, recombinant human CYP3A5; 0.1 µM).
For CC(C)[C@@H]1CC[C@@H](C)C[C@@H]1O, the alkaline phosphatase was 77 ± 6.69 U/L (acute oral toxicity OECD; Swiss albino mice, serum; oral, 300 mg/kg).
CCNCCCNC/C=C\CNCCCNCC gave a serious TEAE of 54% (human, advanced solid tumours; intravenous, dose not given; relative to: patients).
O=C(Nc1ccccc1)C1CCN(C(=O)Oc2cccnc2)CC1: “adverse event Pruritus” 0% (healthy women; oral, 60 mg, 7 days).
COc1ccc2nc3cc(Cl)ccc3c(Nc3cc(CN4CCCC4)c(O)c(CN4CCCC4)c3)c2n1 has a creatinine level of 24 µmol/L (mouse, blood; intraperitoneal, 14 mg/kg).
C=CCNc1c(O)cc2c(O)c1C[C@@H](C)C[C@H](OC)[C@H](O)[C@@H](C)/C=C(\C)[C@H](OC(N)=O)[C@@H](OC)/C=C\C=C(/C)C(=O)N2: “patients with nausea TEAE” 33% (unresectable or metastatic STS, GIST, other; intravenous, 90 mg/m^2).
NC(=O)[C@H]1CCN(c2ncnc(N)c2F)C[C@@H]1N1CCC[C@@H](Nc2cc(Cl)cc(C(F)(F)F)c2)C1=O — result for “grade ≥3 hypocalcaemia”: 0% (B-cell malignancy patients; oral, 328 mg twice daily, dose).
CCN1[C@@H](C(=O)NC23CCC(C(=O)O)(CC2)CC3)[C@H](c2cccc(Cl)c2F)[C@]2(C(=O)Nc3cc(Cl)ccc32)C12CCCCC2 — result for “grade ≥3 adverse event incidence”: 87.5% (patients with advanced solid tumours; oral, 150 mg).
The fatigue incidence of CO[C@H]1C[C@@H]2CC[C@@H](C)[C@@](O)(O2)C(=O)C(=O)N2CCCC[C@H]2C(=O)O[C@H]([C@H](C)C[C@@H]2CC[C@@H](OC(=O)NCCOCCOCCOCCOCCOCCOCCOCCOCCC(=O)N3CCc4cc(Cn5nc(-c6ccc7oc(N)nc7c6)c6c(N)ncnc65)ccc4C3)[C@H](OC)C2)C[C@@H](O)[C@H](C)/C=C(\C)[C@@H](O)[C@@H](OC)C(=O)[C@H](C)C[C@H](C)/C=C/C=C/C=C/1C is reported as 58% (patients with advanced solid tumours; intravenous, 6 mg weekly, any grade).
With CCCC[C@@H]1NC(=O)[C@H](Cc2ccc(O)cc2)NC(=O)[C@@H]2CCCN2C(=O)[C@H](CC(=O)O)NC(=O)[C@H](C)NC(=O)[C@H](Cc2ccccc2)NC(=O)[C@@H]2CSCCC(=O)N3CN(CN(C3)C(=O)CCSC[C@@H](C(=O)N[C@@H](C)C(N)=O)NC1=O)C(=O)CCSC[C@H](NC(=O)[C@H](C)NC(C)=O)C(=O)N[C@@H]([C@@H](C)CC)C(=O)N[C@@H](CCC(=O)O)C(=O)N[C@@H](CCC(=O)O)C(=O)N[C@H](CCCCNC(=O)CCc1cn(CCOCCOCCOCCN(CCOCCOCCOCCC(=O)N[C@H]3CSCCC(=O)N4CN5CN(C4)C(=O)CCSC[C@H](NC(=O)[C@@H](CC(=O)O)NC(=O)[C@H](Cc4cccc6ccccc46)NC(=O)[C@@H]4CCCN4C3=O)C(=O)N[C@@H](CCSC)C(=O)N[C@@H](CCCCNC(=N)N)C(=O)N[C@@H](CC(=O)O)C(=O)N[C@@H](Cc3c[nH]c4ccccc34)C(=O)N[C@@H](CO)C(=O)N[C@@H]([C@@H](C)O)C(=O)N3CCC[C@H]3C(=O)N3C[C@H](O)C[C@H]3C(=O)N[C@@H](Cc3c[nH]c4ccccc34)C(=O)N[C@H](C(N)=O)CSCCC5=O)CCOCCOCCOCCn3cc(CCC(=O)NCCCC[C@H]4NC(=O)[C@H](CCC(=O)O)NC(=O)[C@H](CCC(=O)O)NC(=O)[C@H]([C@@H](C)CC)NC(=O)[C@@H](NC(=O)[C@H](C)NC(C)=O)CSCCC(=O)N5CN6CN(C5)C(=O)CCSC[C@H](NC(=O)[C@H](Cc5ccc(O)cc5)NC(=O)[C@H](CCC(N)=O)NC4=O)C(=O)N[C@@H](Cc4ccccc4)C(=O)N[C@@H](C)C(=O)N[C@@H](CC(=O)O)C(=O)N4CCC[C@H]4C(=O)N[C@@H](Cc4ccc(O)cc4)C(=O)N[C@@H](CCCC)C(=O)N[C@H](C(=O)N[C@@H](C)C(N)=O)CSCCC6=O)nn3)nn1)C(=O)N[C@@H](CCC(N)=O)C(=O)N[C@@H](Cc1ccc(O)cc1)C(=O)N2 the unbound clearance was 49 mL/min/kg (Sprague-Dawley rat).
C=CC(=O)N1CC[C@H](n2nc(C#Cc3cc(OC)cc(OC)c3)c3c(N)ncnc32)C1: “adverse drug reaction incidence” 12.5% (patients with advanced solid tumours; oral, dose not given, Malaise, any grade, QD, together with: phosphate-binding therapy).
For C[C@@H](NC(=O)N1C(=O)[C@H](Cc2ccnc(N)c2)[C@H]1C(=O)O)C1CCCCC1, the urine leukocyte-positive was 0% (healthy Chinese adults; continuous intravenous infusion, 0.3 mg/kg/h, 5.0 days).
Clc1ccc(Cl)c(-c2cc(Cl)ccc2Cl)c1 gave an organ weight of 0.48 g (Sprague Dawley rat, thymus; intraperitoneal, 1 mg/kg).
Under “milk fat partition ratio”, Clc1cc2c(cc1Cl)Oc1c(ccc(Cl)c1Cl)O2 is recorded as 337 (cow whole milk; 2000 nM; relative to: milk fat over skim milk).
For [11CH3]Oc1ccc(NC(=O)c2cc([N+](=O)[O-])ccc2Cl)cc1, the intact radiotracer was 30% (heparinized rat blood; 30 min).
COc1cc2c(Oc3ccc4[nH]c(C)cc4c3F)ccnc2cc1OCC1(N)CC1: “grade 1 or 2 abdominal pain” 50% (paediatric recurrent refractory sarcoma; 10 mg).
For COc1ccc(-c2c(-c3ccc(C#N)c(F)c3)nc(N3CCC(N)CC3)n(C)c2=O)cc1F, “serious adverse event incidence” read 8% (refers to: Thrombocytopenia; human patients; oral, dose not given, dose escalation, NG).
O=C(c1ccc(F)c(F)c1Nc1ccc(I)cc1F)N1CC(O)([C@@H]2CCCCN2)C1: “AE causing dose modification” 46% (human patients; oral, dose not given, dose escalation, suspension).
With Clc1ccc(-c2ccccc2)cc1 the total protein was 6 ± 0.2 g/dL (female Sprague-Dawley rats, serum; inhalation, 23 µg/rat, 1 h after exposure).
CC(C)C[C@H](NC(=O)[C@@H](NC(=O)[C@H](CCCNC(=N)N)NC(=O)[C@H](CCC(N)=O)NC(=O)[C@H](Cc1ccccc1)NC(=O)[C@H](Cc1ccc(O)cc1)NC(=O)[C@H](CC(N)=O)NC(=O)[C@H](Cc1c[nH]c2ccccc12)NC(=O)[C@@H](NC(=O)[C@H](CCCNC(=N)N)NC(=O)[C@H](CCCCN)NC(=O)[C@@H](N)Cc1ccccc1)C(C)C)C(C)C)C(=O)N[C@H](C(=O)N[C@@H](CCCCN)C(=O)N[C@@H](CCCCN)C(N)=O)C(C)C: “elution acetonitrile content” 44.4% (reversed-phase UPLC; C18 column, TFA).
O=C1Nc2cc3[nH]nc(-c4ccncc4)c3cc2CN1Cc1ccccc1 — result for “patients with constipation”: 11% (CTCAE v4.03; advanced solid tumour patients; intravenous, 9.6 mg/kg, schedules 1/2).
For O=C(Nc1cnccc1Cl)N1CCN(Cc2ccc3c(c2)OC(F)(F)O3)CC1, the concentration was 93.3 ± 2.8 nM (culture medium without cells; 100 nM, 24 h).
The Tmax of O=C(O)[C@H]1O[C@@H](Oc2cc3oc(-c4ccccc4)cc(=O)c3c(O)c2O)[C@H](O)[C@@H](O)[C@@H]1O is reported as 5.75 ± 2.25 h (Sprague Dawley rat, plasma; oral, 10 g lyophilized powder/kg, high dose).
Under “serum enzyme activity”, O=C(O)CCCOc1ccc(F)cc1-c1cc(-c2ccccc2C(F)(F)F)n(-c2ccccc2)n1 is recorded as 108 ± 19 U/L (refers to: ALP; Crl:CD(SD) rats, female, serum; iv, 25 µg/kg, 14 days).
COc1ccc(N=Nc2ccc3[nH]cc(CCNCc4cccc(OC)c4)c3c2)cc1 — result for “cis isomer fraction”: 94% (HPLC; DMSO:PBS 1:1; pH 7.4, after 385 nm irradiation).
The tissue uptake of CC[C@H](C)[C@H](NC(=O)[C@H](Cc1ccccc1)NC(=O)[C@H](CCC(=O)O)NC(=O)[C@H](CCCNC(=N)N)NC(=O)[C@H](C)NC(=O)[C@H](C)NC(=O)[C@H](CCC(N)=O)NC(=O)[C@H](CCC(=O)O)NC(=O)[C@H](CCC(=O)O)NC(=O)[C@H](CC(C)C)NC(=O)[C@H](Cc1ccc(O)cc1)NC(=O)[C@H](CO)NC(=O)[C@H](CO)NC(=O)[C@@H](NC(=O)[C@H](CC(=O)O)NC(=O)[C@H](CO)NC(=O)[C@@H](NC(=O)[C@H](Cc1ccccc1)NC(=O)[C@@H](NC(=O)CNC(=O)[C@H](CCC(=O)O)NC(=O)[C@H](C)NC(=O)CCc1cnc[nH]1)[C@@H](C)O)[C@@H](C)O)C(C)C)C(=O)N[C@@H](C)C(=O)N[C@@H](Cc1c[nH]c2ccccc12)C(=O)N[C@@H](CC(C)C)C(=O)N[C@H](C(=O)N[C@@H](CCCNC(=N)N)C(=O)NCC(=O)N[C@@H](CCCNC(=N)N)C(=O)N[C@@H](CCCCNC(=O)COCCOCCNC(=O)COCCOCCNC(=O)CC[C@H](NC(=O)CCCCCCCCCCCCCCCCC(=O)O)C(=O)O)C(=O)NCC(=O)NCC(=O)N[C@@H](CO)C(=O)N[C@@H](CCCCNC(=O)[C@H](CCCCNC(=O)[C@H](CCCCNc1c(NCCCCCN(O)C(=O)CCC(=O)NCCCCCN(O)C(=O)CCC(=O)NCCCCCN(O)C(C)=O)c(=O)c1=O)Nc1c(NCCCCCN(O)C(=O)CCC(=O)NCCCCCN(O)C(=O)CCC(=O)NCCCCCN(O)C(C)=O)c(=O)c1=O)NC(=O)[C@H](CCCCNc1c(NCCCCCN(O)C(=O)CCC(=O)NCCCCCN(O)C(=O)CCC(=O)NCCCCCN(O)C(C)=O)c(=O)c1=O)Nc1c(NCCCCCN(O)C(=O)CCC(=O)NCCCCCN(O)C(=O)CCC(=O)NCCCCCN(O)C(C)=O)c(=O)c1=O)C(=O)O)C(C)C [zirconium-89 labelled] is reported as 0.452 %ID/g (ex vivo gamma counting; male Sprague-Dawley rats, colon; intravenous, 1 nmol, 24 h).
Cn1c(-c2ccc(C(N)=O)cc2F)nnc1C(C)(C)Oc1c(F)cc(Cl)cc1F: “general disorder TEAE” 16.7% (human; oral, 3 mg, single ascending dose, incl. administration site).
Under “placebo-corrected QTcF change”, NCCCC[C@@H]1NC(=O)[C@@H](Cc2c[nH]c3ccccc23)NC(=O)[C@H](c2ccccc2)NC(=O)[C@@H]2C[C@@H](OC(=O)NCCN)CN2C(=O)[C@H](Cc2ccccc2)NC(=O)[C@H](Cc2ccc(OCc3ccccc3)cc2)NC1=O is recorded as 12.4 ms (healthy volunteers, male; 600 µg twice daily, 2.0 h, post hoc).
